# Assay results collected from several papers.
# A part holds a random share of what one study measured.
# UniProt Q99583, sequence (220-300, looked up): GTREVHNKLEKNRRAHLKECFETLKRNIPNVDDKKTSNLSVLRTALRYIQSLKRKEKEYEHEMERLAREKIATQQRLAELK

# Set 1
# Target: Interferon regulatory factor 7, full length, phosphomimetic (IRF7, Homo sapiens, UniProt Q92985, residues 1-503, S471D/S472D/S475D/S476D/S477D/S483D/S484D/S487D)
# Technique: protein-binding microarray
# Molecule type: double-stranded DNA, one strand shown
# Sample: in vitro
# Concentration: 2200 nM top
# Setting: 60-bp whole probe
# With: salmon DNA 0.4 mg/ml
# Baseline: random background probes
# Reading: higher = stronger binding
# Target sequence (chain): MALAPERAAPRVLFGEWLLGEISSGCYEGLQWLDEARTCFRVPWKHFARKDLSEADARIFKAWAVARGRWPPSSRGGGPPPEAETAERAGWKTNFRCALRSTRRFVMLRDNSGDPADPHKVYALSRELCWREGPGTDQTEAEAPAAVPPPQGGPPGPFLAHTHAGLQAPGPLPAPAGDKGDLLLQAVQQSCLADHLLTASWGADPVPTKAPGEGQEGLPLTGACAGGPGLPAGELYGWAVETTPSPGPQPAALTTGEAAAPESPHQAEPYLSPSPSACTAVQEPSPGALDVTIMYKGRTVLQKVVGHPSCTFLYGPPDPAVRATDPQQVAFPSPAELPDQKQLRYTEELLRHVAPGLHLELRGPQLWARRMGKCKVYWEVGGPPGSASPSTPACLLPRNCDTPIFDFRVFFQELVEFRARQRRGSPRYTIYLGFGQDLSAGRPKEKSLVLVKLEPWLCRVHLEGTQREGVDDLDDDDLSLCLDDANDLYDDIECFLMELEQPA
Sequence,fitted relative affinity
GCCTAGCACGACGGACTGTGTATCGGGACGTGCTAGGTCTTGATTCGCTTGACGCTGCTG,-0.353 z-score
GCCTAGCACTTAGGTATCCTTATCCTTCAGTGCTAGGTCTTGATTCGCTTGACGCTGCTG,0.896 z-score
GCCTAGCACTGGGGTTCACTCCGGTACCCGTGCTAGGTCTTGATTCGCTTGACGCTGCTG,-0.426 z-score
GCCTAGCACGACGGTTTCGGGTATCGGGCCGTGCTAGTCTTGATTCGCTTGACGCTGCTG,5.63 z-score

# Set 2
# Target: Histone acetyltransferase KAT6A, winged helix 1, GST fusion (KAT6A, Homo sapiens, UniProt Q92794, residues 1-85)
# Technique: protein binding microarray
# Molecule type: double-stranded DNA, one strand shown
# Sample: in vitro
# Concentration: not given
# Setting: 8-mer, flanks averaged, mean of 2 arrays, mostly near background
# Baseline: not given
# Reading: higher = stronger binding
# Target sequence (chain): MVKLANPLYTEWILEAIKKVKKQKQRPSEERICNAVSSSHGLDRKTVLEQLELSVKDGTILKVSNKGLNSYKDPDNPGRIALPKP
Sequence,E-score
AAGCGGGC,0.218
AATCCGGA,0.0156
CGGGTTTA,0.315
TATAAAGA,-0.0914

# Further values, each from its own experiment
Molecule,target,test,system,conditions,how to read,measurement,value
ACACGGGA,"Max-binding protein MNT, bHLH-zipper, MAX partner unstated (MNT, Homo sapiens, UniProt Q99583, residues 220-300)",protein-binding microarray,"double-stranded DNA, one strand shown, in vitro","not given, k-mer, scored over probes, only values ≥0.25",higher = stronger binding,E-score,0.287
"PhoQ, residues 284 288 289 292 302 303 SLSLLA","PhoP, residues 12 14 15 18 19 IFFTR (Escherichia coli, UniProt P23836)","Sort-seq, measured: YFP reporter",E. coli,"PhoQ-PhoP variant library, with: 10 µM Mg2+","baseline: high Mg2+ state, higher = stronger signaling",fold induction,9.81

# Some of these lines once more (set 2):
Sequence,E-score
AATCCGGA,0.0156
